Published values collected from several papers.
Compare with care: the assays were run in different laboratories.

Compound | test | system | conditions | how to read | measurement | result
Cc1cc(NC2CCN(C(=O)OC3CCN(C(=O)/C=C/CN(C)C)C3)CC2)n2ncc(C(C)C)c2n1 (stereo not drawn) | Phase I dose escalation CTCAE v4.0, measured: back pain | patients with advanced solid tumours | dose not given, QD dosing any grade |  | patients with adverse event | 7%
C[C@@H](Nc1cc(F)cc(F)c1)c1cc(C(=O)N(C)C)cc2c(=O)cc(N3CCOCC3)oc12 | measured: Tachycardia | advanced solid tumour patients | oral, dose not given, dose finding |  | patients discontinuing for AE | 0%
Cc1cc(-c2nnc(N)nc2-c2ccc(F)cc2)cc(Cl)n1 | measured: Hyperthyroidism | IO-naive mCRPC patients, male | oral, dose not given, treatment-related, grade 2 |  | patients with immune-mediated AE | 0%
C=CC(=O)Nc1cc(Nc2nccc(-c3cn(C)c4ccccc34)n2)c(OC)cc1N(C)CCN(C)C | measured: treatment-related grade ≥3 Paronychia | EGFR-mutant MET-altered NSCLC | oral, dose not given, all |  | patients with adverse events | 1%
CNC(=O)c1ccc(-c2cnc3ncc(Cc4ccc5ncccc5c4)n3n2)cc1F | measured: Insomnia | hepatocellular carcinoma patients | oral, 600 mg twice daily, expansion cohort, grade 3-4 |  | patients with adverse event | 0%
FC(F)(F)c1ccc(CNc2ccc(Cc3c[nH]c4ncc(Cl)cc34)cn2)cn1 | measured: at least 1 adverse event | patients with TGCT | oral, 1000 mg/day, grade 3 or higher |  | patients with treatment-related adverse event | 36%
C[C@@H](c1ccc2nccn2c1)n1nnc2ncc(-c3cnn(C)c3)nc21 | measured: treatment-related grade ≥3 Diarrhea | EGFR-mutant MET-altered NSCLC | oral, dose not given, all |  | patients with adverse events | 1%
CCOc1c([C@H](C)n2nc(C)c3c(N)ncnc32)cc(Cl)c(F)c1[C@@H]1CNC(=O)C1 | measured: QTcF change above 60 ms | previously treated B-cell malignancy | oral, 10 mg once daily, overall population | baseline: baseline | patients | 0%
NC(=O)N1c2ccccc2C=Cc2ccccc21 |  | male patients | oral, dose not given, treatment-related adverse events |  | patients with abdominal discomfort | 7%
COc1ccc([C@@H](O)c2cc(-c3ncnc4cc(N5CCOCC5)ccc34)c(F)cc2Cl)nn1 |  | locally advanced rectal cancer patients | 50 mg, drug-related adverse events, added: capecitabine and radiotherapy |  | patients with fatigue | 100%
O=C(Nc1nc2cccc(-c3ccc(CN4CCS(=O)(=O)CC4)cc3)n2n1)C1CC1 | measured: angina pectoris | rheumatoid arthritis patients | oral, 150 mg once daily, 4 weeks, any relatedness |  | patients with adverse event | 0%
COc1cc(Nc2ncc3c(n2)-c2ccc(Cl)cc2C(c2c(F)cccc2OC)=NC3)ccc1C(=O)O |  | cancer patients | oral, dose not given, all grades any attribution, added: pembrolizumab |  | patients with back pain | 17%

For quick reference, copied from above:
Compound | test | system | conditions | how to read | measurement | result
FC(F)(F)c1ccc(CNc2ccc(Cc3c[nH]c4ncc(Cl)cc34)cn2)cn1 | measured: at least 1 adverse event | patients with TGCT | oral, 1000 mg/day, grade 3 or higher |  | patients with treatment-related adverse event | 36%
